# Measurements gathered from unrelated publications.
# Compare with care: the assays were run in different laboratories.
Compound,cell line,assay,system,conditions,scale,quantity,value
CN1CCCNC(=O)c2cccc(c2)C(=O)NCCCN(C)CCCNc2cccc3c2C(=O)c2cccc(c2C3=O)NCCC1,SAS,"RNA-Seq, refers to: ZFYVE27 mRNA",,"1 µM, 24 h",relative to: untreated cells,log2 fold change,-1.62
CNS(=O)(=O)Nc1nccc(Cc2c(C)c3ccc(Oc4ncccc4F)cc3oc2=O)c1F,MM1.S,cell viability,,7 days,,IC50,> 1000 nM
CC(C)c1ccc(N(C)c2ccc3c(c2)OCC[C@H]3CNc2cnccc2C(=O)O)cc1,DV-90,"cell viability, CellTiter-Glo",,7 days,,IC50,7.36 nM
CO[C@@H]1[C@@H](OC(N)=O)[C@@H](O)[C@H](Oc2ccc3c(O)c(NC(=O)c4ccc(O)c(CC=C(C)C)c4)c(=O)oc3c2C)OC1(C)C,DLD-1 BRCA2-/-,,,"75 µM, replicate B",relative to: untreated,colony survival,39.1%
CCN(CC)CC(=O)Nc1cccc(-n2cc(-c3ccc4ccc(-c5cn(-c6cccc(NC(=O)CN(CC)CC)c6)nn5)cc4c3)nn2)c1,RCC4,"PCR angiogenesis array, refers to: TYMP",,"5 x IC50, 2 h, normoxia",relative to: untreated,fold regulation,1.09 fold
Cc1ncsc1-c1ccc(C(C)NC(=O)C2CC(O)CN2C(=O)C(NC(=O)CCCCCCCCCCN2CCCC(Nc3ncc(Cl)c(Nc4ccccc4S(=O)(=O)C(C)C)n3)C2)C(C)(C)C)cc1 (centres unmarked),22Rv1,"RNA-seq, refers to: ZNF764 mRNA",,concentration not given,relative to: DMSO,log2 fold change,-2.63
Cn1ncc2cc(-c3cncc(Cl)c3N3CCC4(CCNC4=O)CC3)ccc21,LS174T,"gene expression, microarray, refers to: LDB2 mRNA",,"concentration not given, 24 h",relative to: untreated cells,log2 fold change,2.04
CCOc1cncc(-c2ccc(NC(=O)C3(c4ccnc(NS(=O)(=O)C5CC5)n4)CCOCC3)nc2)n1,lung cancer,"cell viability, CellTiter-Glo",DMSO 0.1%,"72 h, line code 1674",,IC50,81 nM

# Excerpt of the above:
Compound,cell line,assay,system,conditions,scale,quantity,value
CO[C@@H]1[C@@H](OC(N)=O)[C@@H](O)[C@H](Oc2ccc3c(O)c(NC(=O)c4ccc(O)c(CC=C(C)C)c4)c(=O)oc3c2C)OC1(C)C,DLD-1 BRCA2-/-,,,"75 µM, replicate B",relative to: untreated,colony survival,39.1%
